Measured values pooled from the literature.
Every numbered part comes from another study and shows a few of its results, in no order.
Chain of UniProt Q13554 (whole entry, looked up): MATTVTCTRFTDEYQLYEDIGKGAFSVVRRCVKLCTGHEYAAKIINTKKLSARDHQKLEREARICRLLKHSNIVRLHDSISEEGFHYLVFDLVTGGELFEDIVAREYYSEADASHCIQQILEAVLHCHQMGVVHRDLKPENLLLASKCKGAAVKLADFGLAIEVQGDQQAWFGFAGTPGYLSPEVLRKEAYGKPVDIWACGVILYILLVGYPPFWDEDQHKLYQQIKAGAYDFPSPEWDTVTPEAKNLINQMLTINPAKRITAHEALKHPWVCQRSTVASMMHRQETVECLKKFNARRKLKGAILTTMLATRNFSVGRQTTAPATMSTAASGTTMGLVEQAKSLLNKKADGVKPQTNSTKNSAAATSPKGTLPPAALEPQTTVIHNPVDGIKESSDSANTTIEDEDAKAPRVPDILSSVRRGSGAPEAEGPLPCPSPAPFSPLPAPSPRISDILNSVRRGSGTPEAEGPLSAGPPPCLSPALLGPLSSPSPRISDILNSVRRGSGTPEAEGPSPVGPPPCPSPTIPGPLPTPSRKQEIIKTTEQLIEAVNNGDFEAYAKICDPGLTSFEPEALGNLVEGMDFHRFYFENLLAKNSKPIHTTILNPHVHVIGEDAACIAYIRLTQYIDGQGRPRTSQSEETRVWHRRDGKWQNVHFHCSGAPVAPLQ
Chain of UniProt Q9Y616 (whole entry, looked up): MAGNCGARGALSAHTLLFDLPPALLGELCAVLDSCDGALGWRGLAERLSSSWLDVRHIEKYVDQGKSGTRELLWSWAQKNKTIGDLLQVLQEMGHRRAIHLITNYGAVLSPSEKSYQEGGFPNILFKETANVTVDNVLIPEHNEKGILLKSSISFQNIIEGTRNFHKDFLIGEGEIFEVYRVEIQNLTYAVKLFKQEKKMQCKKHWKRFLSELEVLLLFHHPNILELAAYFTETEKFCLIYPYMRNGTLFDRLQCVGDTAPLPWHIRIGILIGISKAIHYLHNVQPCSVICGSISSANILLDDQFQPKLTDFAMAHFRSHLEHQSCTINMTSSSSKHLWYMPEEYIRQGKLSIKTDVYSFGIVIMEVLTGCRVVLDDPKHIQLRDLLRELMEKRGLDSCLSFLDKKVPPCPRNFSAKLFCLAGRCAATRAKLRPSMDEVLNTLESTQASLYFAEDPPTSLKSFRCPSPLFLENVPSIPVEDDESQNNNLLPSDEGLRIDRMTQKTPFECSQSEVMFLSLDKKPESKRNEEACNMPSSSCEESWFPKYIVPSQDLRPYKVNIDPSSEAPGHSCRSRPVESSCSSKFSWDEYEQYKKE
Chain of UniProt O94921 (whole entry, looked up): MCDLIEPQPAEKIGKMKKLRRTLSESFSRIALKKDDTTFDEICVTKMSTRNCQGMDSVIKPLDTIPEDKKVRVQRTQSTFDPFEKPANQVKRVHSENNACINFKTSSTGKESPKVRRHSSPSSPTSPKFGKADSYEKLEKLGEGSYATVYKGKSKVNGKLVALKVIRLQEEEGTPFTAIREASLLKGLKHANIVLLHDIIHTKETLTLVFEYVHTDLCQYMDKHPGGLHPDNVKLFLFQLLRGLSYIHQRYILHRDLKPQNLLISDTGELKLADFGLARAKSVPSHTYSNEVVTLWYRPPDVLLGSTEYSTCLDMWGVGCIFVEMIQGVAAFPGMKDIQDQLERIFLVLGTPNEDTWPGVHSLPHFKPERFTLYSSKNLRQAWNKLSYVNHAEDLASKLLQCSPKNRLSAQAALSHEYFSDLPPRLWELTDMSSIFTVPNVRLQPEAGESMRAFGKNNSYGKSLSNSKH

Series 1
Structure (SMILES): CN(C)C(=O)Cn1cc(-c2nc([C@@](C)(c3ccc(-c4cnc(N)nc4)cc3)C3CC3)no2)cn1
Observed: cell-free assay
Method: competition with immobilised ligand
Tested at: 1 µM
target	remaining binding [%]
CAMK2B (Homo sapiens, UniProt Q13554)	96
CDK14 (Homo sapiens, UniProt O94921)	99
IRAK3 (Homo sapiens, UniProt Q9Y616)	100

Series 2
Target: Interferon regulatory factor 7, full length, phosphomimetic (IRF7, Homo sapiens, UniProt Q92985, residues 1-503, S471D/S472D/S475D/S476D/S477D/S483D/S484D/S487D)
Method: protein-binding microarray
Form: double-stranded DNA, one strand shown
Medium: in vitro
Tested at: 2200 nM top
Setting: 60-bp whole probe
With: salmon DNA 0.4 mg/ml
Reference: random background probes
Direction: higher = stronger binding
Shared flanks, not repeated: GCCTAGCAC … GTCTTGATTCGCTTGACGCTGCTG
Target sequence (chain): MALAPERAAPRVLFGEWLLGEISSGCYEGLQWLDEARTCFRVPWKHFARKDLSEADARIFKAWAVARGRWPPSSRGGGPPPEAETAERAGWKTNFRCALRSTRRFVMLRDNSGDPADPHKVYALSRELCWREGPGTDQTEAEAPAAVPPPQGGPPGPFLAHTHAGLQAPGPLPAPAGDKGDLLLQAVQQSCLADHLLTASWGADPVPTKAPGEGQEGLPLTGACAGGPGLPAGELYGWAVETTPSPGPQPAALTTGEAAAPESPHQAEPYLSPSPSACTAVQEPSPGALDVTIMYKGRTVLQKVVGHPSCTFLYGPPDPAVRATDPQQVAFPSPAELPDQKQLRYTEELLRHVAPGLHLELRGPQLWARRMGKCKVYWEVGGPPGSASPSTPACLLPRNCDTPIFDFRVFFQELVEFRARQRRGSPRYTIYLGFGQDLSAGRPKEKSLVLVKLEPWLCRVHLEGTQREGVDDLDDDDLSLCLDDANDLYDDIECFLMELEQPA
Sequence	fitted relative affinity [z-score]
GACGATTTCGGGTTTCGAAACGTGCTA	5.21
GACGATATCGGGTTTGGAGACGTGCTA	0.353
TTAGAGCTCAGTTTCGATTAGTGCTAG	5.41
TTATAACTGAGTTTCGATTAGTGCTAG	4.2
TTAGGTTTCGGTTCCGGATAGTGCTAG	11.2
TCACTTTCCAACTCTGTTACTGTGCTA	4.89
TTAGATTTCGGGACTGGATTTGTGCTA	1.06
AGCTTTCCCAACATCAGAGCGTGCTAG	1.39

Series 3
Target: Histone acetyltransferase KAT6A, winged helix 2, GST fusion (KAT6A, Homo sapiens, UniProt Q92794, residues 85-181)
Method: protein binding microarray
Form: double-stranded DNA, one strand shown
Medium: in vitro
Tested at: not given
Setting: 8-mer, flanks averaged, mean of 2 arrays, mostly near background
Reference: not given
Direction: higher = stronger binding
Residues (chain): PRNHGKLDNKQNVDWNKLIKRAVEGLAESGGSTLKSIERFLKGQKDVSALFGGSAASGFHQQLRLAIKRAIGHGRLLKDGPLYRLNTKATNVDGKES
Sequence	E-score
GACCGCAA	0.163
AGTGCTAC	-0.0781
GAGCTTAC	0.0252
ACACGACG	-0.0694
CGTGTCAG	0.0514
AAGGACAA	-0.0114
GTTCAGTA	0.00702
GCTTCACA	-0.128

Other studies, line by line
Structure (SMILES)	medium	quantity	result
CCOC(=O)[C@@H]1CSCC(=O)N[C@@H](CC)C(=O)N(C)[C@@H](C)C(=O)N[C@H](CC(C)C)C(=O)N2CCC[C@@H]2C(=O)N(CC)CC(=O)N[C@@H](CC(C)C)C(=O)N(C)[C@@H](C)C(=O)N[C@@H](CC(C)C)C(=O)N1C	hydrocarbon/water	logD	-0.23

For quick reference, copied from above (series 2):
Sequence	fitted relative affinity [z-score]
TTAGATTTCGGGACTGGATTTGTGCTA	1.06
AGCTTTCCCAACATCAGAGCGTGCTAG	1.39
